Published values of several laboratories.
± marks the error that the study gave. Converted amounts (≈) assume the structure as drawn.

With `CN[C@H](CC(C)C)C(=O)N[C@H]1C(=O)N[C@@H](CC(N)=O)C(=O)N[C@H]2C(=O)N[C@H]3C(=O)N[C@H](C(=O)N[C@H](C(=O)O)c4cc(O)cc(O)c4-c4cc3ccc4O)[C@H](O)c3ccc(c(Cl)c3)Oc3cc2cc(c3O[C@@H]2O[C@H](CO)[C@@H](O)[C@H](O)[C@H]2O[C@H]2C[C@](C)(N)[C@H](O)[C@H](C)O2)Oc2ccc(cc2Cl)[C@H]1O` the MIC90 was 4 µg/mL (≈ 2.76 µM) (Enterococcus faecium; agar dilution; compound-susceptible isolates).
`c1csc(CNc2cc[nH]n2)c1`: “cells with structural aberrations” 5% (human peripheral blood lymphocytes (female); 2160 µg/mL, 4 h, repeat, added: without S9).
`COC(=O)[C@@H](CCSC)NCc1cc2ccccc2nc1SC` gave a growth of 89.3% (Pseudomonas aeruginosa; 128 µg/mL, without pentamidine; reference: control).
With `CC(=O)NC[C@H]1CN(c2ccc(N3CCOCC3)c(F)c2)C(=O)O1` the ED50 was 17 mg/kg (Staphylococcus; MRSA-11, mouse systemic infection; intravenous; survival).
`O=C(N1CCc2ccccc21)n1ccnn1` has a hypocotyl length of 6.42 mm (Arabidopsis thaliana; wild type, seedlings; 10 µM, continuous red light, added: 0.3 µM karrikin KAR2).
With `Cc1ccc(CCC(=O)Nc2nnc(S(N)(=O)=O)s2)cc1` the MIC was 0.383 µM (≈ 0.125 µg/mL) (Enterococcus faecium; NR-31937).
Under “mycoplasma load reduction”, `C=C[C@]1(C)C[C@@H](OC(=O)CSCCN(CC)CC)[C@]2(C)[C@H](C)CC[C@]3(CCC(=O)[C@H]32)[C@@H](C)[C@@H]1O` is recorded as 2.81 log10 CFU/mL (Mycoplasma gallisepticum; infected chickens, lung; oral, 40 mg/kg; reference: 0 h).
For `Cn1cc(-c2ccc(-c3cncc(Cl)c3N3CCC4(CCNC4=O)CC3)cc2)cn1`, “log2 fold change” read -1.29 (COLO 205; gene expression, microarray, measured: FABP5 mRNA; concentration not given, 6 h; reference: untreated cells).
`NC(=O)c1cnc2[nH]ccc2c1N[C@@H]1[C@@H]2CC3C[C@H]1C[C@@](O)(C3)C2` gave a percent change of -1.07% (total naive T cells, flow cytometry; Caucasian humans, peripheral blood; 60 mg single dose; reference: baseline).
With `CC(=O)NC[C@H]1CN(c2ccc(N3CCOCC3)c(F)c2)C(=O)O1` the MIC was 2.96 µM (≈ 0.999 µg/mL) (Enterococcus faecium; NR-31970).
`CC(C)n1ncc2c(C(=O)NCC3(C)CNC3)cc(C3CC3)nc21` has a plaque reduction of 0% (Enterovirus D68; viral replication; RD, US/MO/14-18947; 10 nM).
With `CC(C)C[C@H](NC(=O)C[C@H](O)[C@H](CC(C)C)NC(=O)[C@H](Cc1c[nH]cn1)NC(=O)CNC(=O)[C@@H](NC(=O)[C@H](C)NC(=O)[C@H](Cc1c[nH]c2ccccc12)NC(=O)[C@H](CCC(N)=O)NC(=O)[C@@H](Cc1ccccc1)NC(=O)COCCOCCNC(=O)CCC(C(=O)O)N1CCN(CC(=O)O)CCN(CC(=O)O)CCN(CC(=O)O)CC1)C(C)C)C(N)=O` (stereo partly drawn) [lutetium-177 labelled] the tissue uptake was 1.2 ± 0.3 %ID/g (BALB/c nu/nu mice, female, liver; 100 pmol, 30 min, time course 0.5 h, added: PA 300 µg).

Some of these lines once more:
`NC(=O)c1cnc2[nH]ccc2c1N[C@@H]1[C@@H]2CC3C[C@H]1C[C@@](O)(C3)C2` gave a percent change of -1.07% (total naive T cells, flow cytometry; Caucasian humans, peripheral blood; 60 mg single dose; reference: baseline).
With `CC(=O)NC[C@H]1CN(c2ccc(N3CCOCC3)c(F)c2)C(=O)O1` the MIC was 2.96 µM (≈ 0.999 µg/mL) (Enterococcus faecium; NR-31970).
